Results from different studies.
Protocols differ between the studies behind these lines.
Organism: Enterococcus faecalis

CC(=O)NCc1cc(N(C)C)c2c(c1O)C(=O)C1=C(O)[C@]3(O)C(=O)C(C(N)=O)=C(O)[C@@H](N(C)C)[C@@H]3C[C@@H]1C2 — MIC (microbial growth, broth dilution): 2 µg/mL
CCc1[nH]c(C(=O)N[C@@H]2CCN(c3nnc(C(C)(C)O)s3)C[C@@H]2OC)nc1Cl — MIC (ATCC 51575): 0.5 µg/mL
CNC(CC(C)C)C(=O)NC1C(=O)NC(CC(N)=O)C(=O)NC2C(=O)NC3C(=O)NC(C(=O)NC(C(=O)NCCCCNC(=N)N)c4cc(O)cc(O)c4-c4cc3ccc4O)C(O)c3ccc(c(Cl)c3)Oc3cc2cc(c3OC2OC(CO)C(O)C(O)C2OC2CC(C)(N)C(O)C(C)O2)Oc2ccc(cc2Cl)C1O (centres unmarked) — MIC (broth microdilution; ATCC BAA-2573 VanA): 4 µg/mL
CC1CCN(CCCN2/C(=C/c3cc(/C=C/c4c[nH]c5ccccc45)[n+](C)c4ccccc34)Sc3ccccc32)CC1 — MIC (microbial growth, broth dilution; ATCC29212): > 64 µg/mL
CN(C)c1cc(CN2CCCCC2)c(O)c2c1C[C@H]1C[C@H]3[C@H](N(C)C)C(O)=C(C(N)=O)C(=O)[C@@]3(O)C(O)=C1C2=O — MIC (microbial growth, broth dilution): 0.25 µg/mL
COc1cc(Cc2cnc(N)nc2N)cc(/C=C/C(=O)N2N=Cc3ccccc3C2c2ccc(F)cc2)c1OC (centres unmarked) — MIC (microbial growth, broth dilution; ATCC29212): 0.125 µg/mL
CNC(CC(C)C)C(=O)NC1C(=O)NC(CC(N)=O)C(=O)NC2C(=O)NC3C(=O)NC(C(=O)NC(C(=O)NC(CCCNC(=N)N)C(N)=O)c4cc(O)cc(O)c4-c4cc3ccc4O)C(O)c3ccc(c(Cl)c3)Oc3cc2cc(c3OC2OC(CO)C(O)C(O)C2OC2CC(C)(N)C(O)C(C)O2)Oc2ccc(cc2Cl)C1O (centres unmarked) — MIC (broth microdilution; ATCC BAA-2573 VanA): 4 µg/mL
C/C(=N/NC(=N)N)c1nnn(-c2ccc(C#Cc3ccsc3)cc2)c1C — MIC (microbial growth, broth dilution; ATCC51299): > 64 µg/mL
C[n+]1ccn(CC([O-])c2ccccc2)[c]1[Ag-][I].[Na+] (centres unmarked) — MIC (broth dilution; ATCC 19433; 18 h, 37 °C): 10 µg/mL
COc1cc(Cc2cnc(N)nc2N)cc(/C=C/C(=O)N2N=Cc3ccccc3C2C(C)C)c1OC (centres unmarked) — MIC (microbial growth, broth dilution; ATCC29212): 0.03 to 0.06 µg/mL
N#Cc1ccc2cccc(O)c2n1 — MIC (microbial growth, agar dilution; ATCC33186): > 1500 µM
COc1cc(Cc2cnc(N)nc2N)cc(/C=C/C(=O)N2N=Cc3ccccc3C2C=C(C)C)c1OC (centres unmarked) — MIC (microbial growth, broth dilution; ATCC29212; pH 5.8): 0.25 µg/mL
Oc1c(Br)ccc2cccnc12 — MIC (microbial growth, agar dilution; ATCC33186): 35.7 µM
COCCNCc1cc(N(C)C)c2c(c1O)C(=O)C1=C(O)[C@]3(O)C(=O)C(C(N)=O)=C(O)[C@@H](N(C)C)[C@@H]3C[C@@H]1C2 — MIC (JH2-2(pMV158), Tet L efflux): 0.5 µg/mL
CC1=C[C@@]2(C)C(=C(C)[C@H]3[C@@H]4C[C@H](C)C[C@H](C)[C@H]4[C@H]4Oc5ccc(cc5)C[C@]5(O)NC(=O)[C@]6(O[C@H]65)C(=O)[C@@H]2[C@@H]43)[C@H]1C — MIC (microbial growth, broth dilution; ATCC29212): 6.3 µM
COc1cc(Cc2cnc(N)nc2N)cc(/C=C/C(=O)N2N=Cc3ccccc3C2c2ccccc2)c1OC (centres unmarked) — MIC (microbial growth, broth dilution; ATCC29212; pH 7): 0.06 to 0.125 µg/mL
Cc1csc(NCc2cc(N(C)C)c3c(c2O)C(=O)C2=C(O)[C@]4(O)C(=O)C(C(N)=O)=C(O)[C@@H](N(C)C)[C@@H]4C[C@@H]2C3)n1 — MIC (JH2-2(pMV158), Tet L efflux): 4 µg/mL
CC1(C)S[C@@H]2[C@H](NC(=O)[C@H](NC(=O)C3=C(O)C(c4ccccc4F)NC3=O)c3ccccc3)C(=O)N2[C@H]1C(=O)O (some centres unmarked) — MIC (microbial growth, broth dilution; ATCC33186): 25 µg/mL
COc1cc(Cc2cnc(N)nc2N)cc(/C=C/C(=O)N2N=Cc3ccccc3C2c2ccccc2C)c1OC (centres unmarked) — MIC (microbial growth, broth dilution; ATCC29212): 0.125 µg/mL
CNC(CC(C)C)C(=O)NC1C(=O)NC(CC(N)=O)C(=O)NC2C(=O)NC3C(=O)NC(C(=O)NC(C(=O)NC(CCCNC(=N)N)C(=O)OC)c4cc(O)cc(O)c4-c4cc3ccc4O)C(O)c3ccc(c(Cl)c3)Oc3cc2cc(c3OC2OC(CO)C(O)C(O)C2OC2CC(C)(N)C(O)C(C)O2)Oc2ccc(cc2Cl)C1O (centres unmarked) — MIC (broth microdilution; ATCC BAA-2573 VanA): 4 µg/mL
CCN(CC)CCCN1/C(=C/c2cc(C)[n+](C)c3ccccc23)Sc2ccccc21 — MIC (microbial growth, broth dilution; ATCC29212): 32 µg/mL
COc1cc(Cc2cnc(N)nc2N)cc(/C=C/C(=O)N2N=Cc3ccccc3C2C2CCCCC2)c1OC (centres unmarked) — MIC (microbial growth, broth dilution; ATCC29212): 0.25 to 0.5 µg/mL
CC[C@@H](C)[C@@H](NC(=O)[C@@H](CC(C)C)NC(=O)[C@@H](CCCCN)NC(=O)[C@@H](CC(C)C)NC(=O)[C@@H](CC(C)C)NC(=O)[C@H](NC(=O)[C@@H](Cc1c[nH]cn1)NC(=O)[C@@H](CC(C)C)NC(=O)[C@@H](CCCCN)NC(=O)[C@H](NC(=O)[C@@H](CCCCN)NC(=O)[C@@H](CCCCN)NC(=O)[C@@H](CC(C)C)NC(=O)[C@@H](CO)NC(=O)[C@@H](CCCCN)NC(=O)[C@@H](Cc1ccccc1)NC(=O)[C@H](NC(=O)[C@@H](CCCCN)NC(=O)[C@@H](CC(C)C)NC(=O)[C@@H](Cc1ccccc1)NC(=O)[C@@H](CO)NC(=O)[C@@H](CCCCN)NC(=O)[C@@H](Cc1c[nH]c2ccccc12)NC(=O)[C@@H](CCCCN)NC(C)=O)[C@H](C)O)[C@H](C)O)[C@H](C)O)C(=O)N[C@H](CO)C(=O)N[C@H](CO)C(N)=O — MIC (ATCC 29212; 24 h, 37 °C): 16 µg/mL
CCC(CC)C1c2ccccc2C=NN1C(=O)/C=C/c1cc(Cc2cnc(N)nc2N)cc(OC)c1OC (centres unmarked) — MIC (microbial growth, broth dilution; ATCC29212): 0.5 µg/mL
COc1ccc2c(c1CC=C(C)C)O[C@H]1c3cc(CC=C(C)C)c(O)cc3OC[C@@H]21 — MIC (ATCC 29212): 128 µg/mL
CC(C)CNCc1cc(N(C)C)c2c(c1O)C(=O)C1=C(O)[C@]3(O)C(=O)C(C(N)=O)=C(O)[C@@H](N(C)C)[C@@H]3C[C@@H]1C2 — MIC (JH2-2(pMV158), Tet L efflux): 1 µg/mL
Oc1c(Br)cc(Br)c2nc3c(C(F)(F)F)cc(C(F)(F)F)cc3nc12 — MIC (microbial growth, broth dilution; OG1RF): 0.2 µM
CNC(CC(C)C)C(=O)NC1C(=O)NC(CC(N)=O)C(=O)NC2C(=O)NC3C(=O)NC(C(=O)NC(C(=O)NC(CCCNC(N)=O)C(=O)OC)c4cc(O)cc(O)c4-c4cc3ccc4O)C(O)c3ccc(c(Cl)c3)Oc3cc2cc(c3OC2OC(CO)C(O)C(O)C2OC2CC(C)(N)C(O)C(C)O2)Oc2ccc(cc2Cl)C1O (centres unmarked) — MIC (broth microdilution; ATCC BAA-2573 VanA): 16 µg/mL
O=[N+]([O-])c1ccc2c(c1)C=[N+]1N3C(=[O+][Cu-2]1([Cl])[O]2)c1ccccc1NC3c1cc([N+](=O)[O-])ccc1O (centres unmarked) — MIC (broth microdilution; ATCC 29213; 24 h): 256 µg/mL
COC1CCN(Cc2cc(N(C)C)c3c(c2O)C(=O)C2=C(O)[C@]4(O)C(=O)C(C(N)=O)=C(O)[C@@H](N(C)C)[C@@H]4C[C@@H]2C3)CC1 — MIC (JH2-2(pMV158), Tet L efflux): 1 µg/mL
CNC(CC(C)C)C(=O)NC1C(=O)NC(CC(N)=O)C(=O)NC2C(=O)NC3C(=O)NC(C(=O)NC(C(=O)NCCCCCCNC(=N)N)c4cc(O)cc(O)c4-c4cc3ccc4O)C(O)c3ccc(c(Cl)c3)Oc3cc2cc(c3OC2OC(CO)C(O)C(O)C2OC2CC(C)(N)C(O)C(C)O2)Oc2ccc(cc2Cl)C1O (centres unmarked) — MIC (broth microdilution; ATCC BAA-2573 VanA): 4 µg/mL
CN(C)c1cc(CN2CCCCCC2)c(O)c2c1C[C@H]1C[C@H]3[C@H](N(C)C)C(O)=C(C(N)=O)C(=O)[C@@]3(O)C(O)=C1C2=O — MIC (JH2-2(pMV158), Tet L efflux): 1 µg/mL
CO[C@@H](C(N)=O)[C@H](NC(=O)c1ccc(NC(=O)c2ccc([N+](=O)[O-])cc2)cc1)C(=O)Nc1ccc(C(=O)Nc2ccc(C(=O)Nc3ccc(C(=O)O)cc3)c(O)c2OC(C)C)cc1 — MIC (microbial growth; ATCC29212): 1 µg/mL
CN(C)Cc1cc(N(C)C)c2c(c1O)C(=O)C1=C(O)[C@]3(O)C(=O)C(C(N)=O)=C(O)[C@@H](N(C)C)[C@@H]3C[C@@H]1C2 — MIC (JH2-2(pMV158), Tet L efflux): 1 µg/mL
CCCCCCSCC1OC(OC2C(N)CC(N)C(OC3OC(CN)C(O)CC3N)C2O)C(O)C(N)C1O (centres unmarked) — MIC (ATCC 29212): > 150 µg/mL

Repeated from above:
CNC(CC(C)C)C(=O)NC1C(=O)NC(CC(N)=O)C(=O)NC2C(=O)NC3C(=O)NC(C(=O)NC(C(=O)NCCCCNC(=N)N)c4cc(O)cc(O)c4-c4cc3ccc4O)C(O)c3ccc(c(Cl)c3)Oc3cc2cc(c3OC2OC(CO)C(O)C(O)C2OC2CC(C)(N)C(O)C(C)O2)Oc2ccc(cc2Cl)C1O (centres unmarked) — MIC (broth microdilution; ATCC BAA-2573 VanA): 4 µg/mL
CN(C)Cc1cc(N(C)C)c2c(c1O)C(=O)C1=C(O)[C@]3(O)C(=O)C(C(N)=O)=C(O)[C@@H](N(C)C)[C@@H]3C[C@@H]1C2 — MIC (JH2-2(pMV158), Tet L efflux): 1 µg/mL
